Measurements pooled from the literature.
Compare with care: the assays were run in different laboratories.
Technique: steady-state kinetics
B1: UGT3A2 A344T (Homo sapiens, UniProt Q3SY77); chain AKILTISTVGGSHYLLMDRVSQILQDHGHNVTMLNHKRGPFMPDFKKEEKSYQVISWLAPEDHQREFKKSFDFFLEETLGGRGKFENLLNVLEYLALQCSHFLNRKDIMDSLKNENFDMVIVETFDYCPFLIAEKLGKPFVAILSTSFGSLEFGLPIPLSYVPVFRSLLTDHMDFWGRVKNFLMFFSFCRRQQHMQSTFDNTIKEHFTEGSRPVLSHLLLKAELWFINSDFAFDFARPLLPNTVYVGGLMEKPIKPVPQDLENFIAKFGDSGFVLVTLGSMVNTCQNPEIFKEMNNAFAHLPQGVIWKCQCSHWPKDVHLATNVKIVDWLPQSDLLAHPSIRLFVTHGGQNSIMEAIQHGVPMVGIPLFGDQPENMVRVEAKKFGVSIQLKKLKAETLALKMKQIMEDKRYKSAAVAASVILRSHPLSPTQRLVGWIDHVLQTGGATHLKPYVFQQPWHEQYLLDVFVFLLGLTLGTLWLCGKLLGMAVWWLRGARKVKET
B2: FMO3 V257M (Homo sapiens, UniProt P31513); chain GKKVAIIGAGVSGLASIRSCLEEGLEPTCFEKSNDIGGLWKFSDHAEEGRASIYKSVFSNSSKEMMCFPDFPFPDDFPNFMHNSKIQEYIIAFAKEKNLLKYIQFKTFVSSVNKHPDFATTGQWDVTTERDGKKESAVFDAVMVCSGHHVYPNLPKESFPGLNHFKGKCFHSRDYKEPGVFNGKRVLVVGLGNSGCDIATELSRTAEQVMISSRSGSWVMSRVWDNGYPWDMLLVTRFGTFLKNNLPTAISDWLYMKQMNARFKHENYGLMPLNGVLRKEPVFNDELPASILCGIVSVKPNVKEFTETSAIFEDGTIFEGIDCVIFATGYSFAYPFLDESIIKSRNNEIILFKGVFPPLLEKSTIAVIGFVQSLGAAIPTVDLQSRWAAQVIKGTCTLPSMEDMMNDINEKMEKKRKWFGKSETIQTDYIVYMDELSSFIGAKPNIPWLFLTDPKLAMEVYFGPCSPYQFRLVGPGQWPGARNAILTQWDRSLKPMQTRVVGRLQKPCFFFHWLKLFAIPILLIAVFLVLT
B3: enzyme S124A (Arabidopsis thaliana, UniProt O82390); chain MNARALLCSSNIHSLYTSNRPPEKTSSSRSLRNLKPSPKSLRVWIYPRNRSSVFRVLVRSSDKSESSNSYYVEGDKVSGNNDVVSDSPSSIVLPWWEEFPKRWVIVLLCFSAFLLCNMDRVNMAIAILPMSAEYGWNPATVGLIQSSFFWGYLLTQIAGGIWADTVGGKRVLGFGVIWWSIATILTPVAAKLGLPYLLVVRAFMGVGEGVAMPAMNNILSKWVPVQERSRSLALVYSGMYLGSVTGLAFSPFLIHQFGWPSVFYSFGSLGTVWLTLWLTKAESSPLEDPTLLPEERKLIADNCASKEPVKSIPWRLILSKPPVWALISCHFCHNWGTFILLTWMPTYYHQVLKFNLMESGLLSVFPWMTMAISANAGGWIADTLVSRGFSVTNVRKIMQTIGFLGPAFFLTQLKHIDSPTMAVLCMACSQGTDAFSQSGLYSNHQDIAPRYSGVLLGLSNTAGVLAGVLGTAATGHILQHGSWDDVFTISVGLYLVGTVIWNLFSTGEKIID
B4: COMT (Homo sapiens, UniProt P21964); chain MPEAPPLLLAAVLLGLVLLVVLLLLLRHWGWGLCLIGWNEFILQPIHNLLMGDTKEQRILNHVLQHAEPGNAQSVLEAIDTYCEQKEWAMNVGDKKGKIVDAVIQEHQPSVLLELGAYCGYSAVRMARLLSPGARLITIEINPDCAAITQRMVDFAGVKDKVTLVVGASQDIIPQLKKKYDVDTLDMVFLDHWKDRYLPDTLLLEECGLLRKGTVLLADNVICPGAPDFLAHVRGSSCFECTHYQSFLEYREVVDGLEKAIYKGPGSEAGP
B5: FMO3 E308G (Homo sapiens, UniProt P31513); chain GKKVAIIGAGVSGLASIRSCLEEGLEPTCFEKSNDIGGLWKFSDHAEEGRASIYKSVFSNSSKEMMCFPDFPFPDDFPNFMHNSKIQEYIIAFAKEKNLLKYIQFKTFVSSVNKHPDFATTGQWDVTTERDGKKESAVFDAVMVCSGHHVYPNLPKESFPGLNHFKGKCFHSRDYKEPGVFNGKRVLVVGLGNSGCDIATELSRTAEQVMISSRSGSWVMSRVWDNGYPWDMLLVTRFGTFLKNNLPTAISDWLYVKQMNARFKHENYGLMPLNGVLRKEPVFNDELPASILCGIVSVKPNVKEFTGTSAIFEDGTIFEGIDCVIFATGYSFAYPFLDESIIKSRNNEIILFKGVFPPLLEKSTIAVIGFVQSLGAAIPTVDLQSRWAAQVIKGTCTLPSMEDMMNDINEKMEKKRKWFGKSETIQTDYIVYMDELSSFIGAKPNIPWLFLTDPKLAMEVYFGPCSPYQFRLVGPGQWPGARNAILTQWDRSLKPMQTRVVGRLQKPCFFFHWLKLFAIPILLIAVFLVLT
B6: CMBL (Homo sapiens, UniProt Q96DG6); chain MANEAYPCPCDIGHRLEYGGLGREVQVEHIKAYVTKSPVDAGKAVIVIQDIFGWQLPNTRYIADMISGNGYTTIVPDFFVGQEPWDPSGDWSIFPEWLKTRNAQKIDREISAILKYLKQQCHAQKIGIVGFCWGGTAVHHLMMKYSEFRAGVSVYGIVKDSEDIYNLKNPTLFIFAENDVVIPLKDVSLLTQKLKEHCKVEYQIKTFSGQTHGFVHRKREDCSPADKPYIDEARRNLIEWLNKYM
B7: UGT1A9 (Homo sapiens, UniProt O60656); chain GKLLVVPMDGSHWFTMRSVVEKLILRGHEVVVVMPEVSWQLGRSLNCTVKTYSTSYTLEDLDREFKAFAHAQWKAQVRSIYSLLMGSYNDIFDLFFSNCRSLFKDKKLVEYLKESSFDAVFLDPFDNCGLIVAKYFSLPSVVFARGILCHYLEEGAQCPAPLSYVPRILLGFSDAMTFKERVRNHIMHLEEHLLCHRFFKNALEIASEILQTPVTEYDLYSHTSIWLLRTDFVLDYPKPVMPNMIFIGGINCHQGKPLPMEFEAYINASGEHGIVVFSLGSMVSEIPEKKAMAIADALGKIPQTVLWRYTGTRPSNLANNTILVKWLPQNDLLGHPMTRAFITHAGSHGVYESICNGVPMVMMPLFGDQMDNAKRMETKGAGVTLNVLEMTSEDLENALKAVINDKSYKENIMRLSSLHKDRPVEPLDLAVFWVEFVMRHKGAPHLRPAAHDLTWYQYHSLDVIGFLLAVVLTVAFITFKCCAYGYRKCLGKKGRVKKAHKSKTH
B8: enzyme (Candida albicans, UniProt A0A1D8PHX1); chain MISIIQNGISQLSSVSGLDEANLKILICTLLSFPFGIIFKRLPDHDYTLKNIYNVAVSCFYVFGICDLRFGISTLLISATGSYFITRYVRTKSMPWINFLFLMIHMAYSHFHLQFFKEYDPKSIDITGAQMILVMKLSAFGWNIHDGKQPRSTLNDFNKARAITKHPNVLPYIGYVFFYASLLTGPAFDYADYDKFIHGTLFDDVPQDKRPGKNKRRIPRSGVQAFKKFSLGFFWAFLLLQSDKFVTMEYMFSPEFVQYHGLFYRIIYMWILGFTFRLKYYTIWTIAEGACILCGIGYNGVDPETGEFKWNRVQNIDPWSFETGQNVHACLEAWNQNTNIWLKNYVYLRVAKPGKKPGFKSTIFTFTTSAFWHGTRPGYYLTFVVGALMQTVGKYYRRNFRPIFLEADGKTPKPTKIVYDFVCWVNTQLAFGFFVQPFVILGFTKSLECWATVYYWLLWVIAISFFAFSGPFAKSVSKFFKSLQPSYREQQRKSREDKYKLNNEEASIVEQAVGAKLGQDYDIPALGLPPFDVFTDFDQTEVDHDIQHLRKAWTSFRGRRGSITENDFDGLKDAYNNFTNEINDIFNTKKEEFKKEKLNKQN
B9: enzyme D382E (Arabidopsis thaliana, UniProt O82390); chain MNARALLCSSNIHSLYTSNRPPEKTSSSRSLRNLKPSPKSLRVWIYPRNRSSVFRVLVRSSDKSESSNSYYVEGDKVSGNNDVVSDSPSSIVLPWWEEFPKRWVIVLLCFSAFLLCNMDRVNMSIAILPMSAEYGWNPATVGLIQSSFFWGYLLTQIAGGIWADTVGGKRVLGFGVIWWSIATILTPVAAKLGLPYLLVVRAFMGVGEGVAMPAMNNILSKWVPVQERSRSLALVYSGMYLGSVTGLAFSPFLIHQFGWPSVFYSFGSLGTVWLTLWLTKAESSPLEDPTLLPEERKLIADNCASKEPVKSIPWRLILSKPPVWALISCHFCHNWGTFILLTWMPTYYHQVLKFNLMESGLLSVFPWMTMAISANAGGWIAETLVSRGFSVTNVRKIMQTIGFLGPAFFLTQLKHIDSPTMAVLCMACSQGTDAFSQSGLYSNHQDIAPRYSGVLLGLSNTAGVLAGVLGTAATGHILQHGSWDDVFTISVGLYLVGTVIWNLFSTGEKIID
Sequence of UniProt P11509 (whole entry, looked up): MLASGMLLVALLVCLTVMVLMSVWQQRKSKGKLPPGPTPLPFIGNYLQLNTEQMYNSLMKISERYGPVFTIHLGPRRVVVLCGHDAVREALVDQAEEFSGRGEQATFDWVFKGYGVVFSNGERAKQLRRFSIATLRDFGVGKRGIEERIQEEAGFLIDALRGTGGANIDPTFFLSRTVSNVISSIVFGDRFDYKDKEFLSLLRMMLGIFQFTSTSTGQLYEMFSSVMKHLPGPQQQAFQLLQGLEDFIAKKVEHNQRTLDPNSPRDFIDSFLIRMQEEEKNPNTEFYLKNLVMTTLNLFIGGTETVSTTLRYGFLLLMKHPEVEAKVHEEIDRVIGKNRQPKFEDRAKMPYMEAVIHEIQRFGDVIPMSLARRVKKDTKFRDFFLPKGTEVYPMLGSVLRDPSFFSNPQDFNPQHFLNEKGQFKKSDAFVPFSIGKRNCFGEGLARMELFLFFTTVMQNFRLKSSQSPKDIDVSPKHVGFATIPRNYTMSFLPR
Sequence of UniProt P05177 (whole entry, looked up): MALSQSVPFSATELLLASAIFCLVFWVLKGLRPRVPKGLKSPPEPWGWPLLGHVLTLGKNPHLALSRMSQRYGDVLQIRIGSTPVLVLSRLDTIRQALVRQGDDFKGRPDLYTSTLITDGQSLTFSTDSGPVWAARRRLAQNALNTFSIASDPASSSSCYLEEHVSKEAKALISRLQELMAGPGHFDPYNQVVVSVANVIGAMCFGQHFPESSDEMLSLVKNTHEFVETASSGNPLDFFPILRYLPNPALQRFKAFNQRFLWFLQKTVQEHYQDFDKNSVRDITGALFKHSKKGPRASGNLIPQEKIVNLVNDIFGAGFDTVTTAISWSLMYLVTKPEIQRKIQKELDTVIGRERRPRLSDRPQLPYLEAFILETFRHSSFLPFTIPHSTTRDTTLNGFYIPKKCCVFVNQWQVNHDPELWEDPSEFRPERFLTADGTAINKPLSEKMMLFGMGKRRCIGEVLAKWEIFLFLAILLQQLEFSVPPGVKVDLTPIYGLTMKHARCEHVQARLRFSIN

CYP2A6 (Homo sapiens, UniProt P11509)
Vmax/Km (CN1C(=O)CC[C@H]1c1cccnc1; microsomes; pH 6.7, cotinine to COX, not purified): 0.044 µL/min/mg

CYP1A2 (Homo sapiens, UniProt P05177)
Vmax/Km (COc1cc2c(cc1CC=C(C)C)C(=O)C[C@@H](c1ccc(O)cc1)O2; pH 7.4, 37 °C): 41.1 µL/min/mg

B1 (UGT3A2 A344T)
Vmax/Km (O=c1ccn([C@@H]2O[C@H](CO[P@@](=O)(O)O[P@@](=O)(O)O[C@H]3O[C@H](CO)[C@@H](O)[C@H](O)[C@H]3O)[C@@H](O)[C@H]2O)c(=O)[nH]1; pH 7.4, 37 °C, not purified, together with: 1-OH-pyrene 16 µM, MgCl2 10 mM, alamethicin): 1.5 µL/min/mg

B2 (FMO3 V257M)
Vmax/Km (CN1CCC[C@H]1c1cccnc1; HEK293 microsomes; 37 °C, not purified, together with: NADPH regenerating system): 0.0068 µL/min/mg

B3 (enzyme S124A)
Vmax/Km (O=P(O)(O)O; pH 6.5, 25 °C, apparent, not purified): 18.3 µL/min/mg

B4 (COMT)
Vmax/Km (O=c1oc2c(O)c(O)ccc2cc1-c1nc2ccccc2s1; human liver S9; pH 7.4, 37 °C): 112 µL/min/mg

B5 (FMO3 E308G)
Vmax/Km (CN1CCC[C@H]1c1cccnc1; HEK293 microsomes; 37 °C, not purified, together with: NADPH regenerating system): 0.0089 µL/min/mg

B6 (CMBL)
Vmax/Km (CCCc1nc(C(C)(C)O)c(C(=O)OCc2oc(=O)oc2C)n1Cc1ccc(-c2ccccc2-c2nnn[nH]2)cc1; lysate; pH 7.4, 37 °C, not purified): 145 µL/min/mg

B7 (UGT1A9)
Vmax/Km (COc1ccc(/C=C\c2cc(OC)c(OC)c(OC)c2)cc1O; pH 7.4, 37 °C): 2160 µL/min/mg

B8 (enzyme)
Vmax/Km (CCCCC/C=C\C/C=C\CCCCCCCC(=O)SCCNC(=O)CCNC(=O)[C@H](O)C(C)(C)COP(=O)(O)OP(=O)(O)OC[C@H]1O[C@@H](n2cnc3c(N)ncnc32)[C@H](O)[C@@H]1OP(=O)(O)O; pH 7.4, 37 °C, apparent, not purified): 190 µL/min/mg

B9 (enzyme D382E)
Vmax/Km (O=P(O)(O)O; pH 6.5, 25 °C, apparent, not purified): 35 µL/min/mg

A few entries again:
CYP2A6 (Homo sapiens, UniProt P11509)
Vmax/Km (CN1C(=O)CC[C@H]1c1cccnc1; microsomes; pH 6.7, cotinine to COX, not purified): 0.044 µL/min/mg
